{"data": "Experimental data collected from several papers", "note": "Lines come from different studies, so protocols differ."}
{"SMILES": "O=C(Nc1nc2cccc(-c3ccc(CN4CCS(=O)(=O)CC4)cc3)n2n1)C1CC1", "system": "rheumatoid arthritis patients", "setting": "oral, 200 mg once daily, 4 weeks, regardless of relatedness", "measurement": "patients with skin disorders", "result": "8.3%"}
{"SMILES": "Cc1cc(NC2CCN(C(=O)OC3CCN(C(=O)/C=C/CN(C)C)C3)CC2)n2ncc(C(C)C)c2n1 (centres unmarked)", "assay": "Phase I dose escalation CTCAE v4.0, refers to: abdominal distension", "system": "patients with advanced solid tumours", "setting": "dose not given, Total dosing any grade", "measurement": "patients with adverse event", "result": "7%"}
{"SMILES": "C[C@@H](c1ccc2nccn2c1)n1nnc2ncc(-c3cnn(C)c3)nc21", "assay": "refers to: Pneumonitis grade ≥3", "system": "EGFR-mutant MET-altered NSCLC", "setting": "oral, study", "measurement": "patients with treatment-related AEs", "result": "0%"}
{"SMILES": "C=CC(=O)NC1CCN(c2ncc3ncnc(Nc4ccc(Oc5ccc6c(c5)ncn6C)c(C)c4)c3n2)CC1", "system": "male patients", "setting": "oral, dose not given, on-treatment adverse events", "measurement": "patients with abdominal discomfort", "result": "0%"}
{"SMILES": "FC(F)(F)c1ccc(CNc2ccc(Cc3c[nH]c4ncc(Cl)cc34)cn2)cn1", "assay": "refers to: alanine aminotransferase increased", "system": "non-TGCT solid tumour patients", "setting": "oral, 1000 mg/day, all grades", "measurement": "patients with treatment-related adverse event", "result": "6%"}
{"SMILES": "COc1cc(Nc2ncc3c(n2)-c2ccc(Cl)cc2C(c2c(F)cccc2OC)=NC3)ccc1C(=O)O", "system": "cancer patients", "setting": "oral, dose not given, grade 4 any attribution, with: pembrolizumab", "measurement": "patients with lung infection", "result": "4%"}
{"SMILES": "CCOc1c([C@H](C)n2nc(C)c3c(N)ncnc32)cc(Cl)c(F)c1[C@@H]1CNC(=O)C1", "assay": "refers to: QTcF change above 60 ms", "system": "previously treated B-cell malignancy", "setting": "oral, 10 mg once daily, baseline QTcF ≤450 ms", "scale": "baseline: baseline", "measurement": "patients", "result": "0%"}
{"SMILES": "CCO[C@H]1CCN(Cc2c(OC)cc(C)c3[nH]ccc23)[C@H](c2ccc(C(=O)O)cc2)C1", "assay": "refers to: Cough", "system": "PNH patients, active haemolysis", "setting": "oral, 100 mg twice daily, extension phase", "measurement": "patients with adverse event", "result": "20%"}
{"SMILES": "CC(C)C[C@H](NC(=O)CNC(=O)c1cc(Cl)ccc1Cl)B(O)O", "assay": "refers to: Dizziness, all grades", "system": "newly diagnosed multiple myeloma patients", "setting": "oral, dose not given, maintenance phase, new onset, cycle 17 or later", "measurement": "patients with adverse event", "result": "11%"}
{"SMILES": "CNC(=O)c1cc(Oc2ccc(NC(=O)Nc3cc(C(C)(C)C)nn3-c3ccc4ncccc4c3)c(F)c2)ccn1", "system": "patients", "setting": "oral, dose not given, cycles 1 and 2, High AUC subgroup", "measurement": "patients with cardiac disorders", "result": "17%"}
{"SMILES": "Cc1cc(-c2nnc(N)nc2-c2ccc(F)cc2)cc(Cl)n1", "assay": "refers to: obliterative bronchiolitis", "system": "IO-naive mCRPC patients, male", "setting": "oral, dose not given, treatment-related, grade 1", "measurement": "patients with immune-mediated AE", "result": "0%"}
{"SMILES": "CNC(=O)c1ccc(-c2cnc3ncc(Cc4ccc5ncccc5c4)n3n2)cc1F", "assay": "refers to: Insomnia", "system": "gastric cancer patients", "setting": "oral, 600 mg twice daily, expansion cohort, grade 3-4", "measurement": "patients with adverse event", "result": "0%"}
{"SMILES": "COc1ccc([C@@H](O)c2cc(-c3ncnc4cc(N5CCOCC5)ccc34)c(F)cc2Cl)nn1", "system": "locally advanced rectal cancer patients", "setting": "250 mg, drug-related adverse events, with: capecitabine and radiotherapy", "measurement": "patients with anemia", "result": "50%"}
{"SMILES": "C[C@@H](Nc1cc(F)cc(F)c1)c1cc(C(=O)N(C)C)cc2c(=O)cc(N3CCOCC3)oc12", "assay": "refers to: Sepsis", "system": "advanced solid tumour patients", "setting": "oral, dose not given, dose expansion", "measurement": "patients discontinuing for AE", "result": "0%"}
